Assay results collected from several papers.
Numbers after ± are the reported error. In brackets after ≈: the same amount, converted by molar mass.

Molecule | test | system | setting | scale | quantity | value
CC(C)C[C@H](NC(=O)[C@H](CCC(=O)O)NC(=O)[C@H](CCC(=O)O)NC(=O)[C@H](CC(=O)O)NC(=O)[C@H](CCC(=O)O)NC(=O)[C@H](CCC(=O)O)NC(=O)[C@H](CCC(=O)O)NC(=O)[C@@H](N)CC(=O)O)C(=O)O |  | rat, CSF | subcutaneous, 11.0 mg/kg, 30 min |  | concentration | 15.3 ng/mL
COc1ccc(-c2cc(=O)c3c(OC)c(OC)c(OC)c(OC)c3o2)cc1OC |  | C57BL/6 mouse, male, liver | oral, 1% w/w in diet, 6 weeks, orange peel extract diet | baseline: content in orange peel | tissue to peel content ratio | 0.055%
[123I]c1cncc(OC[C@@H]2CCN2)c1 | SPECT | human, pons | intravenous bolus, 2.1 mCi | baseline: plasma | tissue/plasma ratio | 16.7
COc1cc(-c2nc(-c3ccccc3)c(-c3cccs3)[nH]2)cc(OC)c1OC(=O)C1=CN(C)C=CC1 |  | C57BL/6 mouse, CES1 knockout, brain homogenate | 10 µM, 1 h, 37 °C |  | remaining compound | ≥ 50%
CCCCCOc1ccc(-c2ccc(-c3ccc(C(=O)N[C@H]4C[C@@H](O)[C@@H](O)NC(=O)[C@@H]5[C@@H](O)[C@@H](C)CN5C(=O)[C@H]([C@@H](C)O)NC(=O)[C@H]([C@H](O)[C@@H](O)c5ccc(O)cc5)NC(=O)[C@@H]5C[C@@H](O)CN5C(=O)[C@H]([C@@H](C)O)NC4=O)cc3)cc2)cc1 |  | patients aged 5 to <sample A years, plasma | intravenous, loading 3.0 then 1.5 mg/kg daily |  | clearance mean | 0.333 mL/min/kg
CC[C@@]1(O)C(=O)OCc2c1cc1n(c2=O)Cc2cc3c(CN(C)C)c(O)ccc3nc2-1 |  | human patients, plasma | oral, 8 mg weekly, geometric mean, together with: pazopanib 800 mg daily |  | AUC(0-inf) | 254 ng·h/mL
CC(C)C[C@@H]1NC(=O)CNC(=O)[C@@H]2CCCN2C(=O)CNC(=O)[C@H](CCCNC(=N)N)NC(=O)[C@H](Cc2ccccc2)NC(=O)CNC(=O)[C@H](Cc2ccc(O)cc2)NC(=O)CNC(=O)[C@H](CCCNC(=N)N)NC(=O)[C@H](C)NC(=O)[C@H](CCCNC(=N)N)NC(=O)[C@H](Cc2ccccc2)NC(=O)[C@@H](N)CSSC[C@@H](C(=O)O)NC1=O | RP-HPLC | MDCK cell lysate | pH 7.4, 37 °C |  | stability time | > 23 h
CCCCCCCCCC(=O)N[C@@H](Cc1c[nH]c2ccccc12)C(=O)N[C@H](CC(N)=O)C(=O)N[C@@H](CC(=O)O)C(=O)N[C@@H]1C(=O)NCC(=O)N[C@@H](CCCN)C(=O)N[C@@H](CC(=O)O)C(=O)N[C@H](C)C(=O)N[C@@H](CC(=O)O)C(=O)NCC(=O)N[C@H](CO)C(=O)N[C@@H]([C@H](C)CC(=O)O)C(=O)N[C@@H](CC(=O)c2ccccc2N)C(=O)O[C@@H]1C |  | male Wistar rat, skin tissue | subcutaneous, 50 mg/kg |  | AUC(0-inf) | 114000 ± 21800 ng·h/mL
CC(=O)N[C@H](CCCCNC(=O)C(C)F)C(=O)N[C@@H](CS)C(=O)N[C@@H](CS)C(=O)N[C@@H](CCC(=O)O)C(=O)N[C@@H](Cc1c[nH]cn1)C(=O)N[C@H](Cc1ccccc1)C(=O)N[C@@H](CCCNC(=N)N)C(=O)N[C@@H](Cc1c[nH]c2ccccc12)C(=O)N[C@@H](CS)C(=O)N[C@@H](CCCNC(=N)N)C(=O)N1CCC[C@H]1C(=O)N[C@H](C(N)=O)C(C)C (some centres unmarked) [fluorine-18 labelled] |  | male C57BL/6 mice, B16-F10 tumour | intravenous, 4 h | baseline: tumour over blood | tumour to tissue uptake ratio | 7.45 ± 0.69
O[C@H]1CCCN[C@@H]1CCCn1cnc2c(Cl)c(Cl)ccc21 |  | human, plasma | oral, 600 mg, single dose, healthy volunteers |  | MRT | 9.79 h
YMDGTMSQV | RP-HPLC UV | peptide, aqueous formic acid acetonitrile | 60 min, 4 °C, together with: 120 mM hydrogen peroxide |  | native peptide remaining | < 10%
[Met(O)35]Aβ40 | electron microscopy | sodium phosphate buffer | 10 µM, pH 7.4, 25 °C, agitation 200 rpm | baseline: wild-type peptide | delay of fibril formation | ~24 h
CN[C@@](C)(C[18F])C(=O)O |  | SCID mouse DU-145 xenograft, spleen | 15 min, post injection |  | tissue uptake | 13 ± 1 %ID/g
NC(=O)c1nc(F)c[nH]c1=O | UV-Vis spectrophotometry | supercritical CO2 | 120 min, 308 K, 12 MPa, 768.42 kg/m^3 |  | solubility | 146 µg/mL (≈ 929 µM)
Cc1ccc(Nc2nccc(N(C)c3ccc4c(C)n(C)nc4c3)n2)cc1S(N)(=O)=O |  | patients without gastric acid suppression, plasma | oral, 600 mg once daily, 24 h, with food, first steady state, geometric mean |  | Cmin | 33500 ng/mL
CCCCCCCCCCCCCC[N+](C)(C)CCCCCCCCCCCCCC | substrate depletion | human liver microsomes | 0.5 µM, 0 to 3 h, 37 °C, together with: NADPH |  | intrinsic clearance | 0.164 mL/h/mg protein
CC[C@H](C)[C@H](NC(=O)[C@@H](N)CCCNC(=N)N)C(=O)N[C@H](C(=O)N1CCC[C@H]1C(=O)N[C@@H](C)C(N)=O)C(C)C |  | healthy volunteers, both sexes, plasma | intravenous infusion, 6.5 mg/kg daily, day 7, multiple ascending dose |  | AUC(0-t) | 2110 ± 413 ng·h/mL
CSCC[C@@H]1NC(=O)[C@H](CC(=O)O)NC(=O)CNC(=O)[C@H](CCCNC(=N)N)NC(=O)[C@H](C)NC(=O)[C@H](CCC(=O)O)NC(=O)[C@H](CCCNC(=N)N)NC(=O)[C@@H]2CSSC[C@@H]3NC(=O)[C@H](CO)NC(=O)[C@H]([C@@H](C)O)NC(=O)[C@@H]4CCCN4C(=O)[C@H](C)NC(=O)[C@H](Cc4c[nH]c5ccccc45)NC(=O)[C@H](CC(=O)O)NC(=O)CNC(=O)[C@H](CCCNC(=N)N)NC(=O)CNC(=O)[C@H](CCC(N)=O)NC(=O)[C@@H]4CCCN4C(=O)[C@@H](NC(=O)CNC(=O)C(C)F)CSSC[C@H](NC(=O)CNC(=O)[C@H](C)NC(=O)[C@H](CC(C)C)NC(=O)[C@H](CSSC[C@@H](C(=O)NCC(N)=O)NC(=O)[C@H]([C@@H](C)O)NC(=O)[C@H](CCCNC(=N)N)NC(=O)[C@@H]4CCCN4C1=O)NC(=O)[C@H](CC(=O)O)NC(=O)[C@H](CO)NC(=O)[C@H](CC(=O)O)NC(=O)[C@H](CCC(N)=O)NC(=O)[C@H](CO)NC3=O)C(=O)N[C@@H](C(C)C)C(=O)N2 (some centres unmarked) [fluorine-18 labelled] |  | nude mouse, U-87 MG xenograft, lungs | intravenous, 2.5 h, together with: cyclo(RGDyK) co-injected |  | tissue uptake | 0.47 ± 0.18 %ID/g
CC(C)c1nc(CN(C)C(=O)N[C@H](C(=O)N[C@@H](Cc2ccccc2)C[C@H](O)[C@H](Cc2ccccc2)NC(=O)OCc2cncs2)C(C)C)cs1 |  | healthy human volunteers, plasma | oral, dose not given, warfarin interaction study | baseline: given without warfarin | AUC(0-24) | 11700 ng·h/mL
ONc1ccc2c(c1)Cc1ccccc1-2 | reconstructed skin micronucleus | EpiDerm reconstructed skin | concentration not given, 48 h, together with: cytochalasin B 3 µg/mL |  | cytotoxicity threshold dose | 1.3 µg/cm2
Cc1cc(C(C#N)c2ccc(Cl)cc2)c(Cl)cc1NC(=O)c1cc(I)cc(I)c1O (centres unmarked) | HPLC, non-compartmental | Corriedale lambs, parasitized, plasma | subcutaneous, 5 mg/kg, together with: moxidectin 0.2 mg/kg subcutaneous |  | Tmax | 45.8 ± 16.6 h
CC[C@H](C)[C@H](NC(=O)[C@H](C)NC(=O)[C@H](CCCCN)NC(=O)[C@H](CC(C)C)NC(=O)[C@H](C)NC(=O)[C@@H](NC(=O)[C@H](Cc1c[nH]cn1)NC(=O)[C@H](CC(C)C)NC(=O)[C@@H](NC(=O)[C@@H](NC(=O)[C@H](CCCCN)NC(=O)[C@H](CCCCN)NC(=O)[C@H](C)NC(=O)[C@H](CO)NC(=O)[C@H](CCCCN)NC(=O)[C@H](Cc1ccccc1)NC(=O)[C@@H](NC(=O)[C@H](CCCCN)NC(=O)[C@H](CC(C)C)NC(=O)[C@H](Cc1ccccc1)NC(=O)[C@H](CO)NC(=O)[C@H](CCCCN)NC(=O)[C@H](Cc1c[nH]c2ccccc12)NC(=O)[C@H](CCCCN)NC(C)=O)[C@@H](C)O)[C@@H](C)O)C(C)C)[C@@H](C)O)C(=O)N[C@@H](CO)C(=O)N[C@@H](CO)C(N)=O | circular dichroism at 222 nm | buffer with 50% TFE | 75 µM, 30 °C |  | mean residue ellipticity | -26300 deg cm² dmol⁻¹
C(#Cc1cc(C#CCCC[n+]2cccc(-c3ccccc3)c2)c(C#CCCC[n+]2cccc(-c3ccccc3)c2)cc1C#CCCC[n+]1cccc(-c2ccccc2)c1)CCC[n+]1cccc(-c2ccccc2)c1.[Br-].[Br-].[Br-].[Br-] | rotarod | rat |  | baseline: motor ED50 over analgesic ED50 | ED50 ratio | 20 to 800 fold

Excerpt of the above:
Molecule | test | system | setting | scale | quantity | value
CC(C)C[C@@H]1NC(=O)CNC(=O)[C@@H]2CCCN2C(=O)CNC(=O)[C@H](CCCNC(=N)N)NC(=O)[C@H](Cc2ccccc2)NC(=O)CNC(=O)[C@H](Cc2ccc(O)cc2)NC(=O)CNC(=O)[C@H](CCCNC(=N)N)NC(=O)[C@H](C)NC(=O)[C@H](CCCNC(=N)N)NC(=O)[C@H](Cc2ccccc2)NC(=O)[C@@H](N)CSSC[C@@H](C(=O)O)NC1=O | RP-HPLC | MDCK cell lysate | pH 7.4, 37 °C |  | stability time | > 23 h
COc1cc(-c2nc(-c3ccccc3)c(-c3cccs3)[nH]2)cc(OC)c1OC(=O)C1=CN(C)C=CC1 |  | C57BL/6 mouse, CES1 knockout, brain homogenate | 10 µM, 1 h, 37 °C |  | remaining compound | ≥ 50%
COc1ccc(-c2cc(=O)c3c(OC)c(OC)c(OC)c(OC)c3o2)cc1OC |  | C57BL/6 mouse, male, liver | oral, 1% w/w in diet, 6 weeks, orange peel extract diet | baseline: content in orange peel | tissue to peel content ratio | 0.055%
